Published values collected from several papers.
Compare with care: the assays were run in different laboratories. Several values in a cell are separate wells, animals, samples, runs or records. Numbers after ± are the reported error.
TOP2A: DNA topoisomerase 2-alpha (TOP2A, Homo sapiens, UniProt P11388)
Chain of UniProt P11388 (whole entry, looked up): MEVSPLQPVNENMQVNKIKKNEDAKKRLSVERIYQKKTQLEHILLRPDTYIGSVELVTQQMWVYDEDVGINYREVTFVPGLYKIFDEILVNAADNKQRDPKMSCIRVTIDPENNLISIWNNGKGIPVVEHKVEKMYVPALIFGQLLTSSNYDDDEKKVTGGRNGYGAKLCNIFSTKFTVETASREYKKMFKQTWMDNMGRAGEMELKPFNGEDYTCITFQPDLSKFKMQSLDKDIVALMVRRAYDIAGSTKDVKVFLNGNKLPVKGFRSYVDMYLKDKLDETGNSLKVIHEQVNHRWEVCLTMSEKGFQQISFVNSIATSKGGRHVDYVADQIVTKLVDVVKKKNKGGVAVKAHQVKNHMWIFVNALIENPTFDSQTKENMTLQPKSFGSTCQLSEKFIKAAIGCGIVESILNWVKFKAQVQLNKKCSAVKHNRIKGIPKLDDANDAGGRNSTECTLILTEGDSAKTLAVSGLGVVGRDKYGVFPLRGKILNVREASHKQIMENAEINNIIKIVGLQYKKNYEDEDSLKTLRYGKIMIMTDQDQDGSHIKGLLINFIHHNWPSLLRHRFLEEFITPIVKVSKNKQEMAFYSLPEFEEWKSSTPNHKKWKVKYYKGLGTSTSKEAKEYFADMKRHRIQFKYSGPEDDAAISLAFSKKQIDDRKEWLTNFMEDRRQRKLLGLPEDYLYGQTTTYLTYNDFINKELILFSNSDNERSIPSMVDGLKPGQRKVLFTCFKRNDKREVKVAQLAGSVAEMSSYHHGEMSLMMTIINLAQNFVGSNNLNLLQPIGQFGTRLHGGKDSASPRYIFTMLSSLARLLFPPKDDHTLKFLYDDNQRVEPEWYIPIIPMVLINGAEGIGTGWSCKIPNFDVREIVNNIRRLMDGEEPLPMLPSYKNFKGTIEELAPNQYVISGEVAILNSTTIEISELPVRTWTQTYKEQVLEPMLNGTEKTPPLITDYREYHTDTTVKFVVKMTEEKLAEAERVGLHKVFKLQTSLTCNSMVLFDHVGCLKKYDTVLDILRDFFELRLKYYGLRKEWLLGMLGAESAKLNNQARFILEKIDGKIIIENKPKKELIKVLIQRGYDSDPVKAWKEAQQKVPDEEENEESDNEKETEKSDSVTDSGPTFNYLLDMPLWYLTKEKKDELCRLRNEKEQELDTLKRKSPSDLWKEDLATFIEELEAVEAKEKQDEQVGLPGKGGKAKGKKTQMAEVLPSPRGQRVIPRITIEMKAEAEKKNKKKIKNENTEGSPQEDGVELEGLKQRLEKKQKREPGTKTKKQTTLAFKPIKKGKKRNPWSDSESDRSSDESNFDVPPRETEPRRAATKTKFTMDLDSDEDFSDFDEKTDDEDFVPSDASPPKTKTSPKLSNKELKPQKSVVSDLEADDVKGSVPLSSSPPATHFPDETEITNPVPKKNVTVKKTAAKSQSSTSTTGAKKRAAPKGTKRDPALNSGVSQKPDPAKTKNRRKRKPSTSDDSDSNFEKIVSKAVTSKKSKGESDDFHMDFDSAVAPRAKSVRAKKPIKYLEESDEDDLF
PKN1: Serine/threonine-protein kinase N1 (PKN1, Homo sapiens, UniProt Q16512)
Chain of UniProt Q16512 (whole entry, looked up): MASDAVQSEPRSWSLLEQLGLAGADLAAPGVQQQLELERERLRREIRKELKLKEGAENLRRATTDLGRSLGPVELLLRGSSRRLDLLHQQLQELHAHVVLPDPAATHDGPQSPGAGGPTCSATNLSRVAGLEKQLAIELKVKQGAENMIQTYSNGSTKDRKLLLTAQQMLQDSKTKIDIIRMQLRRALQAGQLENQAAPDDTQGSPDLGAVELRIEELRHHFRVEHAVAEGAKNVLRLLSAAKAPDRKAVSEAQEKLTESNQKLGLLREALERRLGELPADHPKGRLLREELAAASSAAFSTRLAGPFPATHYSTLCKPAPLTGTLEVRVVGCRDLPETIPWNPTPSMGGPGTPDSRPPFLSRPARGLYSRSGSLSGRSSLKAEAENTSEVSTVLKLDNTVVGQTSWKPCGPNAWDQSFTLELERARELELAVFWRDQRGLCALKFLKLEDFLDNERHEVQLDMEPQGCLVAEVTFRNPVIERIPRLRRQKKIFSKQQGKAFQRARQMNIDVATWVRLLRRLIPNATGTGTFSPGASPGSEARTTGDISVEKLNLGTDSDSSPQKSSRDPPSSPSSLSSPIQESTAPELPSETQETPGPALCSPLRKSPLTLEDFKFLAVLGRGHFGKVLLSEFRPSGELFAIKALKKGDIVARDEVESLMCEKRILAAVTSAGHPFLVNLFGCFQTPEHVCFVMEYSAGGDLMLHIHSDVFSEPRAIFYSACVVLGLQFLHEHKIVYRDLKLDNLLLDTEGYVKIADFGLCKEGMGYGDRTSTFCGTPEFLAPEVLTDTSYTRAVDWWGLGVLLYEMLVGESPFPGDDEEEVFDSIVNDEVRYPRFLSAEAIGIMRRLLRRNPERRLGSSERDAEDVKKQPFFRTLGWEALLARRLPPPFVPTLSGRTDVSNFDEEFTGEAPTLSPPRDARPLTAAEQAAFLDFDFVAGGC
BEST2: Bestrophin-2a (BEST2, Homo sapiens, UniProt Q8NFU1)
Chain of UniProt Q8NFU1 (whole entry, looked up): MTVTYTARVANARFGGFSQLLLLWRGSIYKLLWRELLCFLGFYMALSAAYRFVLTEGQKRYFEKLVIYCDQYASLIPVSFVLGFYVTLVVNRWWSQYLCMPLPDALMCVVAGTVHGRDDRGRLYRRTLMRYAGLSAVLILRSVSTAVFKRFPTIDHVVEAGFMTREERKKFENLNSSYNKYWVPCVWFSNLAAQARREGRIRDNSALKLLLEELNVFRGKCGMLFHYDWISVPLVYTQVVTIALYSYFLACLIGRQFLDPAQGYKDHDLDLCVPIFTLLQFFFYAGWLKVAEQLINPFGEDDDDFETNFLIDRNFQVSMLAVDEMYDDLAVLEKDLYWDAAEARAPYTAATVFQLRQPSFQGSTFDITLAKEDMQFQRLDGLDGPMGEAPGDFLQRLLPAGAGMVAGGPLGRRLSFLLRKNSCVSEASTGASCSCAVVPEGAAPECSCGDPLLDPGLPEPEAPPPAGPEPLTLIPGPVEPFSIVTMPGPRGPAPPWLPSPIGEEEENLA
Chain of UniProt Q16774 (whole entry, looked up): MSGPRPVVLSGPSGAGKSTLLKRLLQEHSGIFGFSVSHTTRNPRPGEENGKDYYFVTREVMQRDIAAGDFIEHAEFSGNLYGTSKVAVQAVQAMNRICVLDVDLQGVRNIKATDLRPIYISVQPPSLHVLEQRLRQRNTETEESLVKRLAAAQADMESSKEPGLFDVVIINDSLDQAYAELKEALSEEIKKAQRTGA
Chain of UniProt P51575 (whole entry, unmodified, looked up): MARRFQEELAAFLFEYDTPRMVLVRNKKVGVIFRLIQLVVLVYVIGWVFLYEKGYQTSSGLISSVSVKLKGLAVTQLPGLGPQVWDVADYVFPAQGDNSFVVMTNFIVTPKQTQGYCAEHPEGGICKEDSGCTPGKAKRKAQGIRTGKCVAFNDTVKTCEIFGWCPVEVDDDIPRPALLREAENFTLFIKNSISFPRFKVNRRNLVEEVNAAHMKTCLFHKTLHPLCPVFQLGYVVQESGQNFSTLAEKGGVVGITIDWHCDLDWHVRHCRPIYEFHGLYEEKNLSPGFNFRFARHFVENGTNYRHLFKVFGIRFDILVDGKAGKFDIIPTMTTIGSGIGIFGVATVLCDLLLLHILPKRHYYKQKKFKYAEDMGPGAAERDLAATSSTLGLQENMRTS
Chain of UniProt P10276 (whole entry, looked up): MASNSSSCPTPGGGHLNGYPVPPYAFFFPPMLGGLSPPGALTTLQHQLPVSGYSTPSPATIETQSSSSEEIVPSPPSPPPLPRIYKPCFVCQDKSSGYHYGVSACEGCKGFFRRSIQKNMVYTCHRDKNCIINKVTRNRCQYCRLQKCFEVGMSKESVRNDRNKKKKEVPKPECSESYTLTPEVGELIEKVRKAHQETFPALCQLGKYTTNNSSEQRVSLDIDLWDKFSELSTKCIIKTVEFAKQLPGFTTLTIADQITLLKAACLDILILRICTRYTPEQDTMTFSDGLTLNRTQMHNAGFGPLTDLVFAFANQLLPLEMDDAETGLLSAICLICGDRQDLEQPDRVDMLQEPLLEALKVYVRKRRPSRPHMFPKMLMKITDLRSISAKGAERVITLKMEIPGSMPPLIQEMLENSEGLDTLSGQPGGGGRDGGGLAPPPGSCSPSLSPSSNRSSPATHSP
Chain of UniProt P08246 (whole entry, looked up): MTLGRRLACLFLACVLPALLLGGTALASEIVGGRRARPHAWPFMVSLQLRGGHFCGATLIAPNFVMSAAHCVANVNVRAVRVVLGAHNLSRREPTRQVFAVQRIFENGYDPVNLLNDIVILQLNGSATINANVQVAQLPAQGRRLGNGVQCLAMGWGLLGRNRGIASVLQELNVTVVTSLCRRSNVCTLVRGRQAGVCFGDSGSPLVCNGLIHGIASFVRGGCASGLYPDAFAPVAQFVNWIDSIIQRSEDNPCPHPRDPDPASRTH
Chain of UniProt Q96NT5 (whole entry, unmodified, looked up): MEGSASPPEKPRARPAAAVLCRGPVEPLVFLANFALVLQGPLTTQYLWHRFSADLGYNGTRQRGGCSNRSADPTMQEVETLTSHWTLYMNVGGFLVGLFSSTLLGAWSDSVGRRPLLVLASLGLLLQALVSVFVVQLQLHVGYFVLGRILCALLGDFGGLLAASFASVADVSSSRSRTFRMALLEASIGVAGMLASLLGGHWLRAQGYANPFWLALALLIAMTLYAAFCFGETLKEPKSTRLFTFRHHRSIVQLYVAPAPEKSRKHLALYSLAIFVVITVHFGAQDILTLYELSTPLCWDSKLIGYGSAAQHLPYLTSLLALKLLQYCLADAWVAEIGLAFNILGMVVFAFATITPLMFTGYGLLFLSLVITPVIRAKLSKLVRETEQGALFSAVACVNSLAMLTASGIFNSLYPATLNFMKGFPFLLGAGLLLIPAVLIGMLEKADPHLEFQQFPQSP
Chain of UniProt P29373 (whole entry, unmodified, looked up): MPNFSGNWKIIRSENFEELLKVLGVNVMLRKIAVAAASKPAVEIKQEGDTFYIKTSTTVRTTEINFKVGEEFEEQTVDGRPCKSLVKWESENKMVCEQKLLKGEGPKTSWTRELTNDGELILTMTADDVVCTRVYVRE

SMILES | target | assay | system | conditions | how to read | measurement | result
O=c1nc(SCc2cc(F)cc(C(F)(F)F)c2)nc(SCc2ccc3ncsc3c2)[nH]1 | TOP2A | decatenation |  | 125 µM |  | mean decatenated DNA | 0%
Nc1nc2c(ncn2[C@H]2C[C@@H]3OP(=O)(O)OC[C@H]3O2)c(=O)[nH]1 | anti-cGMP antibody | antibody binding, competitive cGMP EIA |  | concentration not given, acetylated samples | reference: EC50 cGMP over EC50 cpd, higher = stronger binding | relative binding affinity | 0.0521
CC(C)C[C@H](NC(=O)[C@H](Cc1ccccc1)NC(=O)c1cnccn1)B(O)O | Proteasome component C5/PSMB5 (Homo sapiens, UniProt P20618+P28074) | enzyme activity, inhibitor, progress curve |  | human constitutive β5c |  | kobs/[I] | 141000 M⁻¹ s⁻¹
O=c1nc(SCc2cc(F)cc(C(F)(F)F)c2)nc(SCc2nc3ccccc3[nH]2)[nH]1 | TOP2A | decatenation |  | 31.25 µM, replicate 2 |  | decatenated DNA | 48%
O=c1c(OS(=O)(=O)[O-])c(-c2ccc(OS(=O)(=O)[O-])c(OS(=O)(=O)[O-])c2)oc2cc(OS(=O)(=O)[O-])cc(OCc3ccc(COc4cc(OS(=O)(=O)[O-])cc5oc(-c6ccc(OS(=O)(=O)[O-])c(OS(=O)(=O)[O-])c6)c(OS(=O)(=O)[O-])c(=O)c45)cc3)c12.[Na+].[Na+].[Na+].[Na+].[Na+].[Na+].[Na+].[Na+] | Neutrophil elastase (ELANE, Homo sapiens, UniProt P08246) | elastin-congo red cleavage |  | concentration not given |  | duration of inhibition | ~12 h
C=C1CN(S(=O)(=O)c2ccc(C)cc2)CCCN(Cc2ccccc2)CCCN(S(=O)(=O)c2ccc(C)cc2)C1 | Protein transport protein Sec61 subunit alpha isoform 1 (Homo sapiens, UniProt P61619) | Sec61-dependent translocation, inhibitor, measured: CD4 signal peptide-FLuc reporter | HEK293 | 0.12 mM, 6 h |  | FLuc/RLuc ratio | 1.04
O=C(CCCCCCC(=O)Nc1ccccc1)NO | Histone deacetylase 8 (HDAC8, Homo sapiens, UniProt Q9BY41) | ITC | Tris-HCl buffer | concentration not given, 293 K |  | binding stoichiometry | 1
Fc1cc(CCOCCCCCc2ccccc2)cc2nc[nH]c12 | ATP2A2 (Sus scrofa, UniProt P11607) | ATPase activity, inhibitor | pig microsomes | concentration not given | reference: vehicle | reduction in Vmax | ~60%
CC(C)=CCC/C(C)=C/C=C/C(C)=C/C=C/C(C)=C/C=C/C=C(C)/C=C/C=C(C)/C=C/C=C(\C)CCC=C(C)C | Beta-lactoglobulin (LGB, Bos taurus, UniProt P02754) | fluorescence quenching |  | concentration not given, 298 K |  | number of binding sites | 1.4
C=CC(=O)N1CCC(COCC(=O)N2CCN(c3nc(-c4cnc(N)nc4C(F)F)nc(N4CCOC[C@@H]4C)n3)CC2)CC1 | Serine/threonine-protein kinase TAO3 (TAOK3, Homo sapiens, UniProt Q9H2K8) | KINOMEscan |  | 1 µM |  | remaining binding | 100%
Cc1nc(CSc2nc(SCc3cc(F)cc(C(F)(F)F)c3)nc(=O)[nH]2)cs1 | TOP2A | decatenation |  | 125 µM |  | mean decatenated DNA | 3.5%
CC1(C)C(/C=C/C=C2/N(CCCc3ccccc3)c3ccc4ccccc4c3C2(C)C)=[N+](CCCc2ccccc2)c2ccc3ccccc3c21.[Br-] | Protein arginine N-methyltransferase 6 (PRMT6, Homo sapiens, UniProt Q96LA8) | inhibitor, filter binding |  | together with: R4 peptide substrate |  | Hill coefficient | 1.29
Nc1nc2c(ncn2[C@@H]2O[C@H](COP(=O)(O)O)[C@@H](O)[C@H]2O)c(=O)[nH]1 | GUK1 (Homo sapiens, UniProt Q16774) | enzyme activity, NADH-coupled |  | 31.25 µM, together with: KCl 10 mM |  | reaction velocity | 0.0544 µM/s and 0.0492 µM/s and 0.0407 µM/s
CC(=O)c1cnc2ccc(-c3cc(Cl)c(O)c(Cl)c3)nc2c1N[C@H]1CC[C@H](CN(C)C)CC1 | PKN1 | inhibitor |  |  |  | Hill slope | -0.883
CC[C@@H]1[C@H](F)C(=O)N[C@@H]1COc1nccc2cc(C(N)=O)c(OC)cc12 | PKN1 | ATP-site probe binding, ActivX profiling | THP-1 cell lysate | 0.2 mM, Lys1 site |  | inhibition | 5%
N#Cc1ccc2c(-c3ccncc3)c(-c3ccc(F)cc3)nn2c1 | Mitogen-activated protein kinase MKC1 (MKC1, Candida albicans, UniProt P43068) | kinase binding, competitor, MIB/MS competition, measured: MKC1 | Candida albicans cell lysate | 100 nM | reference: DMSO | log2 fold change | 0.382
Cl.c1ccc(Oc2ccc(Oc3ccc4ncc(OCC5CCNCC5)nc4c3)cc2)cc1 | Protein AF-9, with DOT1L (Homo sapiens, UniProt P42568) | inhibitor, AlphaLISA |  | 10 µM |  | activity | inactive
Nc1ccc(C(=O)O)cc1 | BEST2 | whole-cell patch clamp | HEK293 transiently expressing channel | concentration not given, membrane potential 20 mV |  | current density | 46.5 pA/pF and 65.1 pA/pF and 18 pA/pF and 74.5 pA/pF and 34.6 pA/pF and 59.4 pA/pF
O=c1ccc2nc3ccc(O[C@@H]4O[C@H](CO)[C@@H](O)[C@H](O)[C@H]4O)cc3oc-2c1 | Lysosomal acid glucosylceramidase (GBA1, Homo sapiens, UniProt P04062, R534H) | substrate |  | 5 nM enzyme |  | Vmax | 42 pmol/min
Cc1cccc(N2CC(C(=O)O)CC2=O)c1 (centres unmarked) | Histone-lysine N-methyltransferase SETDB1, triple tudor domain (SETDB1, Homo sapiens, UniProt Q15047) | binding, affinity selection mass spectrometry |  |  | reference: other proteins in batch | log fold enrichment | 0.0184
Nc1nc(-c2ccc(Cl)c(S(N)(=O)=O)c2)cs1 | Carbonic anhydrase 4 (CA4, Homo sapiens, UniProt P22748) | ITC |  | concentration not given, 25 °C |  | intrinsic binding ΔH | -4.13 kcal/mol

SMILES | target | assay | system | conditions | how to read | measurement | result
CC(C)c1cc(CNc2nc(Nc3cc(C4CC4)[nH]n3)cc(N3CCN(C)CC3)n2)on1 | PKN1 | inhibitor |  |  |  | Hill slope | -0.787
Cc1nc(CSc2nc(SCc3ccc(C(F)(F)F)cc3)nc(=O)[nH]2)cs1 | TOP2A | decatenation |  | 15.6 µM |  | mean decatenated DNA | 94.5%
CN(Cc1cnc2nc(N)nc(N)c2n1)c1ccc(C(=O)N[C@@H](CCC(=O)O)C(=O)O)cc1 | Proton-coupled folate transporter (Homo sapiens, UniProt Q96NT5, I251A) |  | cells transfected with I251A mutant | 2 min, pH 5.5, 37 °C |  | uptake | 13%
CCC(C)(NCCc1cc(C(F)(F)F)cc(C(F)(F)F)c1)c1cccc(NC2=CC(=O)N(C3CCC(=O)NC3=O)C2=O)c1 (centres unmarked) | Cereblon/Ikaros (Homo sapiens, UniProt Q13422+Q96SW2) | protein degradation, degrader, HiBiT luminescence | Jurkat |  |  | Dmax | 60%
Nc1ncnc2c1ncn2[C@@H]1O[C@H](C[C@@H](N)CC[C@H](N)C(=O)O)[C@@H](O)[C@H]1O | O-methyltransferase (Sorghum bicolor, UniProt A0A1B6PFV1) | biolayer interferometry |  | together with: saturating RSV |  | cooperativity factor σ | 8.88
O=c1cc(-c2ccc([N+](=O)[O-])cc2)[nH]c2c(-c3ccc(Cl)cc3)c(Cc3ccccc3)nn12 | Bis(5'-nucleosyl)-tetraphosphatase [asymmetrical] (Homo sapiens, UniProt P50583) | thermal stability, binder, thermal proteome profiling | RD, cell lysate | 50 µM, 0.5% DMSO | reference: DMSO vehicle | melting temperature shift | 7.3 °C
O=c1nc(SCc2ccc(C(F)(F)F)cc2)nc(SCc2csc3ccc(Cl)cc23)[nH]1 | TOP2A | DNA relaxation |  | 1.95 µM, replicate 1 |  | relaxed DNA | 90.4%
NCCCC(=O)O | Sodium- and chloride-dependent taurine transporter (SLC6A6, Homo sapiens, UniProt P31641, L306A) | binding, microscale thermophoresis |  | 1 mM, room temperature, together with: 50 nM labelled protein | higher = more binding | normalised MST signal | 0.612
C[S+](CC[C@H](N)C(=O)[O-])C[C@H]1O[C@@H](n2cnc3c(N)ncnc32)[C@H](O)[C@@H]1O (some centres unmarked) | Histone-lysine N-methyltransferase 2C (KMT2C, Homo sapiens, UniProt Q8NEZ4) | substrate, enzyme-coupled methylation |  | together with: H3 peptide 1600 µM |  | apparent Km | 20.1 ± 1.2 µM
O=C(O)C1=CCNCC1 | BEST2 | whole-cell patch clamp | HEK293 transiently expressing channel | concentration not given, membrane potential 100 mV |  | current density | 99.3 pA/pF and 256 pA/pF and 207 pA/pF and 223 pA/pF and 372 pA/pF
CC(C)c1ccc(CSc2nc(SCc3ccc4sccc4c3)[nH]c(=O)n2)cc1 | TOP2A | decatenation |  | 7.8 µM, replicate 1 |  | decatenated DNA | 100%
Oc1ccccc1-c1n[nH]cc1-c1ccnc2ccccc12 | Cell cycle protein kinase DBF2 (DBF2, Candida albicans, UniProt Q59KM8) | kinase binding, MIB/MS competition | Candida albicans lysate | 1 µM | reference: DMSO, negative = stronger binding | log2 fold change | -0.01
CCCC[C@H](NC(=O)[C@H](C)c1c(C)[nH]c2ccc(O)cc12)c1ncc(-c2cc3ccccc3nc2OC)[nH]1 | Adenosine receptor A1 (ADORA1, Homo sapiens, UniProt P30542) |  |  |  |  | Hill coefficient | 0.7
O=C(O)c1ccc([N+](=O)[O-])cc1 | BEST2 | whole-cell patch clamp | HEK293 transiently expressing channel | concentration not given, membrane potential -20 mV |  | current density | -74.9 pA/pF and -61.1 pA/pF and -20.3 pA/pF and -51.1 pA/pF and -58.5 pA/pF
CCN1CCC[C@H]1CNC(=O)c1c(O)c(Cl)cc(Cl)c1OC | G-protein coupled receptor 15 (Homo sapiens, UniProt P49685) | β-arrestin recruitment, TANGO luminescence, measured: GPR15 |  | concentration not given | reference: basal luminescence | log2 fold change | 0.153
Nc1nc2c(ncn2[C@@H]2O[C@H](COP(=O)(O)OP(=O)(O)O)[C@@H](OP(=O)(O)OP(=O)(O)O)[C@H]2O)c(=O)[nH]1 | UDP-galactopyranose mutase (glf, Escherichia coli, UniProt P37747) | SILAC mass spectrometry, measured: glf protein |  | concentration not given | reference: heavy over light | log2 fold change | 1.14
CC1=C(/C=C/C(C)=C/C=C/C(C)=C/C(=O)O)C(C)(C)CCC1 | Cellular retinoic acid-binding protein 2 (CRABP2, Homo sapiens, UniProt P29373, L122E/R133K/W110L) | tryptophan fluorescence quenching |  | concentration not given | reference: R132K:W109L:L121E over R132K:W109L, higher = stronger binding | binding affinity fold change | > 34 fold
Nc1ncnc2c1ncn2[C@@H]1O[C@H](COP(=O)(O)CP(=O)(O)OP(=O)(O)O)[C@@H](O)[C@H]1O | P2X purinoceptor 1 (P2RX1, Homo sapiens, UniProt P51575, F188L) | saturation binding | HEK293 | 52 nM |  | specific binding | 3570 CCPM and 5100 CCPM
CCCCCCCCC(=O)c1cc(O)c(O)c(O)c1 | Retinoic acid receptor alpha (RARA, Homo sapiens, UniProt P10276) | reporter gene, Gal4 hybrid reporter |  | 10 µM | reference: vehicle | activation | 2.01 fold
COC(=O)C1CCN(C(=O)c2ccc(N(CCCO)Cc3cnc4nc(N)nc(N)c4n3)cc2)CC1 | Pteridine reductase 1 (Leishmania major, UniProt Q01782) |  |  | hDHFR weight 10 | reference: LmPTR1, LmDHFR over hDHFR, 1.0 selective, 0.0 non-selective | partition index | 0.9

Repeated from above:
SMILES | target | assay | system | conditions | how to read | measurement | result
CC(C)c1ccc(CSc2nc(SCc3ccc4sccc4c3)[nH]c(=O)n2)cc1 | TOP2A | decatenation |  | 7.8 µM, replicate 1 |  | decatenated DNA | 100%
O=C(CCCCCCC(=O)Nc1ccccc1)NO | Histone deacetylase 8 (HDAC8, Homo sapiens, UniProt Q9BY41) | ITC | Tris-HCl buffer | concentration not given, 293 K |  | binding stoichiometry | 1
CC1(C)C(/C=C/C=C2/N(CCCc3ccccc3)c3ccc4ccccc4c3C2(C)C)=[N+](CCCc2ccccc2)c2ccc3ccccc3c21.[Br-] | Protein arginine N-methyltransferase 6 (PRMT6, Homo sapiens, UniProt Q96LA8) | inhibitor, filter binding |  | together with: R4 peptide substrate |  | Hill coefficient | 1.29
CC[C@@H]1[C@H](F)C(=O)N[C@@H]1COc1nccc2cc(C(N)=O)c(OC)cc12 | PKN1 | ATP-site probe binding, ActivX profiling | THP-1 cell lysate | 0.2 mM, Lys1 site |  | inhibition | 5%
Fc1cc(CCOCCCCCc2ccccc2)cc2nc[nH]c12 | ATP2A2 (Sus scrofa, UniProt P11607) | ATPase activity, inhibitor | pig microsomes | concentration not given | reference: vehicle | reduction in Vmax | ~60%
CC(C)c1cc(CNc2nc(Nc3cc(C4CC4)[nH]n3)cc(N3CCN(C)CC3)n2)on1 | PKN1 | inhibitor |  |  |  | Hill slope | -0.787
O=c1ccc2nc3ccc(O[C@@H]4O[C@H](CO)[C@@H](O)[C@H](O)[C@H]4O)cc3oc-2c1 | Lysosomal acid glucosylceramidase (GBA1, Homo sapiens, UniProt P04062, R534H) | substrate |  | 5 nM enzyme |  | Vmax | 42 pmol/min
